Assay results of several laboratories.
Parts stem from different laboratories: compare values within a part only. Values joined by “and” are separate records of one study, mostly repeats; a detail may differ. Substitutions count along the parent as printed.
UniProt P49760, sequence (whole entry, looked up): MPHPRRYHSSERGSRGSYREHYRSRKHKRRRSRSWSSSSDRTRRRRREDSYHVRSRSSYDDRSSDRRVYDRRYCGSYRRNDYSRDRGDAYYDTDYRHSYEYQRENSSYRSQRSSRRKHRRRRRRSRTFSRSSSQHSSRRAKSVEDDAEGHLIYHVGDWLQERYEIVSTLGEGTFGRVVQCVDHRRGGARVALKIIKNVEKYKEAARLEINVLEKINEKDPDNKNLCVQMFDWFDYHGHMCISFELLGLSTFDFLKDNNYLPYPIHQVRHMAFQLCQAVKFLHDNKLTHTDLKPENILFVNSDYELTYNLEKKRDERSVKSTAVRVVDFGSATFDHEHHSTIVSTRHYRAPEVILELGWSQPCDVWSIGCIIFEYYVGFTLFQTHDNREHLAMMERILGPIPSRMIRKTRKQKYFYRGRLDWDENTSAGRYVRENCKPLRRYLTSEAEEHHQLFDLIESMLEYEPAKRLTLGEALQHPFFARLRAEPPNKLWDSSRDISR
UniProt Q8TD19, sequence (whole entry, looked up): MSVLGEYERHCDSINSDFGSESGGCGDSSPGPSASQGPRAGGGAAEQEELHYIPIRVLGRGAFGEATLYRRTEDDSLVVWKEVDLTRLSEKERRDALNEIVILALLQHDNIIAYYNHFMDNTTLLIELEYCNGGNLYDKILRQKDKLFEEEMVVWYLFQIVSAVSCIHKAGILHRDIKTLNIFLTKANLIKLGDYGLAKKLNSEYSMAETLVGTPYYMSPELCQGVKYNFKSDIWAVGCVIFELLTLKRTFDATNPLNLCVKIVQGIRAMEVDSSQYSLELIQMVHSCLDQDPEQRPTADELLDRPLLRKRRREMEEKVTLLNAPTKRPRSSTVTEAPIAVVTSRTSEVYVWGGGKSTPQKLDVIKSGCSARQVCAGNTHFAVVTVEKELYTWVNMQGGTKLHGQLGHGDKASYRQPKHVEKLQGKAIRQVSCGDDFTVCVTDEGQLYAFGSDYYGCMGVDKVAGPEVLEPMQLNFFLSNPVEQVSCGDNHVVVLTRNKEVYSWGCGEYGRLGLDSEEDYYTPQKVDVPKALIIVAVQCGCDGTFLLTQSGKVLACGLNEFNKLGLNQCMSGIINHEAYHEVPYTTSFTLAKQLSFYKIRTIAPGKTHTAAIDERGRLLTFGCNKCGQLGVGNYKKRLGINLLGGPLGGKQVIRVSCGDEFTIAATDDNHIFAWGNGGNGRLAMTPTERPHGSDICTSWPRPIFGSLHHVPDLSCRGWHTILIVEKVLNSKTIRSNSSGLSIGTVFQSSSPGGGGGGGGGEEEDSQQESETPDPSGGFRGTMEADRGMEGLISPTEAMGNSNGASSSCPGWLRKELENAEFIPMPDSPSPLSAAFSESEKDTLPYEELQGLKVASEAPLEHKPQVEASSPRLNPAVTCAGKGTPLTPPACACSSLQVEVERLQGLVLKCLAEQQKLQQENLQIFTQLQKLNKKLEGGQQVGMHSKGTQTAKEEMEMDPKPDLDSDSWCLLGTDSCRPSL
UniProt Q9H422, sequence (whole entry, looked up): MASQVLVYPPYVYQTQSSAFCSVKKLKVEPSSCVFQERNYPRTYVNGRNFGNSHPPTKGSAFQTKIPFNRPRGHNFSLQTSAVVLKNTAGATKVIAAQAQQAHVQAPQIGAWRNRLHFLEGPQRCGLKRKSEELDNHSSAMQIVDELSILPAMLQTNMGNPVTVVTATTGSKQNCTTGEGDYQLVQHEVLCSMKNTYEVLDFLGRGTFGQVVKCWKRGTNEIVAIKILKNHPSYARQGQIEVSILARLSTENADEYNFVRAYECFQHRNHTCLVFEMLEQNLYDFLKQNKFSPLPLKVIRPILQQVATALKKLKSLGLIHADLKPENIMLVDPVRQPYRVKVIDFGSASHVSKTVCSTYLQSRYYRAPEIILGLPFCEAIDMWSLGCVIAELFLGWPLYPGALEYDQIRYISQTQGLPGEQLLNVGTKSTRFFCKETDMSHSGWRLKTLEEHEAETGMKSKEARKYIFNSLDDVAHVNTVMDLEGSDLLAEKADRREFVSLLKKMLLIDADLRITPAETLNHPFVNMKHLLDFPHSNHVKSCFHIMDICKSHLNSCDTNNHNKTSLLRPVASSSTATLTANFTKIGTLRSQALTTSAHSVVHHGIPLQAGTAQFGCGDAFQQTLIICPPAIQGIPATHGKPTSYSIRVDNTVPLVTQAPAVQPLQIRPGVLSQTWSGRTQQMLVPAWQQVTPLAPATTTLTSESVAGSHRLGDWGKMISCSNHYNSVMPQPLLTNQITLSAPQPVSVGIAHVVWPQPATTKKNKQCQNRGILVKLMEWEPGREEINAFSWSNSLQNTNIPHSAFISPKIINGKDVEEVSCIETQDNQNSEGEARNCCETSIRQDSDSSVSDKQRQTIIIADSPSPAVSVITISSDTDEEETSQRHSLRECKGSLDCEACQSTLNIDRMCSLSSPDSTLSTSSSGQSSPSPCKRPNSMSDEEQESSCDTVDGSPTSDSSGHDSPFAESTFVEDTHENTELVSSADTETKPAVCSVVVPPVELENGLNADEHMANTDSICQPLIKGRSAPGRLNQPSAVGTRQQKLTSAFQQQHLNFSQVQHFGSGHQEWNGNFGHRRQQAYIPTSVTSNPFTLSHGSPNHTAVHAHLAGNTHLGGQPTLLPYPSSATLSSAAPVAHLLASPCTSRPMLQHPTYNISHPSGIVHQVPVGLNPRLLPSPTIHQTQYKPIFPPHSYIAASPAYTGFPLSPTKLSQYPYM
UniProt O75116, sequence (whole entry, looked up): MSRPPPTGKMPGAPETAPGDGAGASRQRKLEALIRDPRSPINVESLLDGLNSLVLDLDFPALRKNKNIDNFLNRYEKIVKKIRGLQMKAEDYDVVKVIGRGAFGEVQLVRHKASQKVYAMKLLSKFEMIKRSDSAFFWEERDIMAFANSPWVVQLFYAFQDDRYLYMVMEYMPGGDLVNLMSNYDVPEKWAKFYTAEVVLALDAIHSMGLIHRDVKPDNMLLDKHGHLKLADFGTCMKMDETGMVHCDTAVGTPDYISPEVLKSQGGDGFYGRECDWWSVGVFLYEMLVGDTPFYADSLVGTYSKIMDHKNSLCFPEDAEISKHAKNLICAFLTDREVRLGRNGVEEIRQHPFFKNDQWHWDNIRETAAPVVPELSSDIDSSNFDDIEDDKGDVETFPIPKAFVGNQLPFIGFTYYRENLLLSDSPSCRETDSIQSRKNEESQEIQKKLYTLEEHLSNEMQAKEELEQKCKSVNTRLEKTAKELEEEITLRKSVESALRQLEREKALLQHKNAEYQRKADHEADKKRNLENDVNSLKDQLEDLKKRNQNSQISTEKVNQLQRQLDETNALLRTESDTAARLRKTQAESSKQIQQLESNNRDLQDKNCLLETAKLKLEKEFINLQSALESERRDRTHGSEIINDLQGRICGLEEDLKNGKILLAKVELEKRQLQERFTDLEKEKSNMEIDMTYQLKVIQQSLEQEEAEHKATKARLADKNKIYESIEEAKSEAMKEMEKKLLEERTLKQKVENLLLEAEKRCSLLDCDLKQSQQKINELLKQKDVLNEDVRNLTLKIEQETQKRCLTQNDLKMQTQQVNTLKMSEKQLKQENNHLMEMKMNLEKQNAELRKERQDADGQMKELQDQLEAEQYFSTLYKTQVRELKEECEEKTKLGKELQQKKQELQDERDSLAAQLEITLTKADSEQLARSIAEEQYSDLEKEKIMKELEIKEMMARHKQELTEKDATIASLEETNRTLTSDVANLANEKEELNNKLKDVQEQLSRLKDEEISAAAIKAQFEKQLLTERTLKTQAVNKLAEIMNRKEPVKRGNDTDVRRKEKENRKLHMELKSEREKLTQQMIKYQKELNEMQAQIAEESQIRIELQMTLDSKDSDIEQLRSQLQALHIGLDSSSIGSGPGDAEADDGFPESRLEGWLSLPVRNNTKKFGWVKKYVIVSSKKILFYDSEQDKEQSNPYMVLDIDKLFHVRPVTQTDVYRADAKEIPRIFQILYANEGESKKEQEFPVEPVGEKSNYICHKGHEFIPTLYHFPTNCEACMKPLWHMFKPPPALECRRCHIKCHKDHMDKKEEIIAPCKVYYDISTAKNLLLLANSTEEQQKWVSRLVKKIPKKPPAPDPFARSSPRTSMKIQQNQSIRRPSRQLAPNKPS
UniProt O14965, sequence (whole entry, looked up): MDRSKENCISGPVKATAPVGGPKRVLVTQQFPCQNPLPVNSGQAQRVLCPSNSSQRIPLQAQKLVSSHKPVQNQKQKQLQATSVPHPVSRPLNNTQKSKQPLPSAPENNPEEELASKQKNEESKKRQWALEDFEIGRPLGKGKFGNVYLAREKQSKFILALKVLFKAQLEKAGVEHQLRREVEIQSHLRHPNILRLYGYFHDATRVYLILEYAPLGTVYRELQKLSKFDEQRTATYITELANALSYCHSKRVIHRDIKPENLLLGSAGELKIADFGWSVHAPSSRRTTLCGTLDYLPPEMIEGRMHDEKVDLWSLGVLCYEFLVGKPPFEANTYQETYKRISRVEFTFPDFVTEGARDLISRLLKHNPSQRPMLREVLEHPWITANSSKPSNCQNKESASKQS
UniProt P34947, sequence (whole entry, looked up): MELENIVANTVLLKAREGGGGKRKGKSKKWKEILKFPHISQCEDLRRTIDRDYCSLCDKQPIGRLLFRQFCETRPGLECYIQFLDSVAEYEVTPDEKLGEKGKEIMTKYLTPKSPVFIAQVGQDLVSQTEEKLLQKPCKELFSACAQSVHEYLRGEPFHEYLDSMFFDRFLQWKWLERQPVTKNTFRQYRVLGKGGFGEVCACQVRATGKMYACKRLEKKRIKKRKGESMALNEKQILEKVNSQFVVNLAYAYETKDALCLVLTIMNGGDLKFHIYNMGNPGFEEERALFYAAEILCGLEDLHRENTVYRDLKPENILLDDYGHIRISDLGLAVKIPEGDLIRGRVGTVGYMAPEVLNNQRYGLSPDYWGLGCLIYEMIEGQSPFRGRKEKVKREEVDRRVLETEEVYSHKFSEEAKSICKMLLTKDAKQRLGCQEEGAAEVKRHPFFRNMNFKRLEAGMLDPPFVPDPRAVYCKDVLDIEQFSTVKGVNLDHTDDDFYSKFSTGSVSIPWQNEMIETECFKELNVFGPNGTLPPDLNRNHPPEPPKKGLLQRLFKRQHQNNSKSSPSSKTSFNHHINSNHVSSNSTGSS

Study 1
Target: CCNA2, cyclin fold, Cln2 fusion (human)
Technique: yeast growth competition, sequencing
Matrix: yeast
Notes: strong parent motif
Relative to: not given
Reading: higher = stronger binding
Measurement: normalised enrichment score
Starting sequence: CDC25A docking peptide (human); PPHRRRLLFACSP
Variant = PPHRRRLLFACPP [S12P]; value = 2.28
Variant = PPHRRRLLFAQSP [C11Q]; value = 2.97
Variant = PPHRRRLLFACST [P13T]; value = 2.74
Variant = PPHRRRLLVACSP [F9V]; value = 1.41
Variant = PPHRRRLLFTCSP [A10T]; value = 3.28
Variant = MPHRRRLLFACSP [P1M]; value = 2.16
Variant = PHHRRRLLFACSP [P2H]; value = 2.82
Variant = PPHRRRLLFACMP [S12M]; value = 2.51

Study 2
SMILES: Nc1ncnc2c1cnn2-c1ccccc1
Observed: enzyme activity
Mode: inhibitor
Concentration: 0.5 µM
Relative to: control
Measurement: remaining activity
target = NEK9 (Homo sapiens, UniProt Q8TD19); value = 110%
target = HIPK3 (Homo sapiens, UniProt Q9H422); value = 97.6%
target = MAP3K2 (Homo sapiens, UniProt Q9Y2U5); value = 89.5%
target = CAMK1D (Homo sapiens, UniProt Q8IU85); value = 95.6%
target = ROCK2 (Homo sapiens, UniProt O75116); value = 83.2%
target = PTK2B (Homo sapiens, UniProt Q14289); value = 108%
target = Cyclin-dependent kinase 2, with cyclin A (CDK2, Homo sapiens, UniProt P24941); value = 108%
target = Aurora kinase A (AURKA, Homo sapiens, UniProt O14965); value = 91.9%
target = GRK5 (Homo sapiens, UniProt P34947); value = 104%

Further values, each from its own experiment
Substance = NDC80 (Homo sapiens, UniProt O14777); tested on = NUF2 (Homo sapiens, UniProt Q9BZD4); test = cross-linking MS; conditions = hits only; measurement = interaction screen; value = cross-linked
Substance = C[C@@H]1CN(c2cc(-c3nn(C)c4ccc(OC5(C)CC5)cc34)ncn2)C[C@H](C)O1; tested on = CLK2 (Homo sapiens, UniProt P49760); test = target engagement, NanoBRET; system = live cells; measurement = EC50; value = 7.52 µM and 14.4 µM and 9.51 µM
Substance = DEK (Homo sapiens, UniProt P35659); tested on = SSH1 (Homo sapiens, UniProt Q8WYL5); test = cross-linking MS; system = cell fractions; conditions = together with: DSSO; measurement = cross-linked residues; value = K177 to S576
Substance = CC(C)n1cnc(-c2ccc(F)cc2)c1-c1ncc(C(=O)Nc2ccc(N3CCN(C)CC3)cc2)[nH]1; test = refers to: endocrine disorders; system = human, idiopathic pulmonary fibrosis; conditions = dose not given, trial, all arms pooled; measurement = treatment-emergent AE; value = 0%
Substance = ANK3 (Homo sapiens, UniProt Q12955); tested on = CCDC71 (Homo sapiens, UniProt Q8IV32); test = cross-linking MS; system = cell fractions; conditions = together with: DMTMM; measurement = cross-linked residues; value = D2575 to K24
Substance = Cn1cncc1[C@@](O)(COc1ccc(C#N)cc1-c1ccc(OC(F)(F)F)cc1)c1ccc(C#N)cc1; tested on = HEK293T; test = high-content imaging; conditions = 10 µM, 0 h; measurement = cells with altered mitochondria; value = 36.3% and 28.1%
Substance = UFL1 (Homo sapiens, UniProt O94874); tested on = MYH14 (Homo sapiens, UniProt Q7Z406); test = cross-linking MS; system = cell fractions; conditions = together with: DHSO; measurement = cross-linked residues; value = D147 to E1419
